Results pooled from the literature.
Protocols differ between the studies behind these lines. ± gives the spread as reported.
Organism: SARS-CoV-2

SMILES	test	system	setting	EC50
N#Cc1ccccc1C[C@@H](N)C(=O)N[C@H](Cc1ccc(Cl)cc1Cl)C(=O)N[C@H](CC(N)=O)Cc1ccc(F)cc1	viral replication	USA-WA1/2020	24 h	1200 nM
CCC1c2ccsc2CCN1C(=O)Cn1nnc2ccccc21 (stereo not drawn)	viral replication			14900 nM
Oc1c(Br)cc(Br)c2cccnc12	viral replication, immunofluorescence	Vero E6, omicron	24 h	2980 nM
O=S(=O)(c1cc(Cl)cc(Cl)c1)N1CCCC2=CC3CC(CN4CCCCC34)C21 (stereo not drawn)	pseudovirus entry		pseudovirus	49000 nM
C#CCCCNC(=O)CC(Cc1ccc(F)cc1)NC(=O)C(Cc1ccc(Cl)cc1Cl)NC(=O)C(N)Cc1ccccc1C#N (stereo not drawn)	viral replication	USA-WA1/2020	24 h	600 nM
Cc1ccc(N2CCN(C)CC2)cc1C(=O)NC1(c2ccc3c4c(cccc24)CC3)CC1	viral replication	Vero C1008, Omicron BA.5		860 nM
Cc1ccc(OCCN(C)C)cc1C(=O)N[C@H](C)c1cc(-c2cnn(C)c2)cc(-c2cncs2)c1	viral replication	Caco-2, icSARS-CoV-2-nLuc reporter		580 nM
Cc1cc(O)ccc1CN(C)[C@H](C)c1cccc2ccccc12	viral replication	Caco-2-hACE2, USA-WA1/2020	24 h	> 60000 nM
CO/C1=C\C(C)=C\[C@@H](C)[C@@H](O)[C@@H](C)C/C(C)=C/C=C/[C@H](OC)[C@@H]([C@@H](C)[C@@H](O)[C@H](C)C(=O)/C=C/[C@H](C)[C@H](O)C(C)C)OC1=O	viral replication, refers to: nucleocapsid protein	Calu-3, Omicron BA.1		13.4 nM
NCCNc1ccnc2cc(Cl)ccc12	viral replication	Vero 76, MUC-IMB-1/2020		5900 ± 3500 nM
CN(C)CCCCNC(=O)C[C@H](Cc1ccc(F)cc1)NC(=O)[C@@H](Cc1ccc(Cl)cc1Cl)NC(=O)[C@H](N)Cc1ccccc1C#N	viral replication	USA-WA1/2020	24 h	1300 nM
COCn1cc(-c2cc(-c3cnn(C(F)F)c3)cc([C@@H](C)NC(=O)c3cc(OCCN(C)C)ccc3C)c2)cn1	viral replication	Caco-2, icSARS-CoV-2-nLuc reporter		320 nM
CCc1n[nH]c(NC(=O)c2ccc3c(c2)nnn3C)n1	viral replication			> 100000 nM
O=C(O)CNC(=O)c1ccccc1[Se][Se]c1ccccc1C(=O)NCC(=O)O	viral replication, RT-qPCR	Vero	48 h	> 100000 nM
CC[C@H](C)[C@@H]1NC(=O)[C@H](C(C)C)NC(=O)[C@H](CC(C)C)NC(=O)[C@H](CCCCN)NC(=O)[C@H](CCCNC(=N)N)NC(=O)[C@@H]2CCCN2C(=O)[C@H](C(C)C)NC(=O)[C@H](CCCNC(=N)N)NC(=O)[C@H](Cc2ccc(O)cc2)NC(=O)CSC[C@@H](C(=O)NCC(N)=O)NC(=O)[C@H](Cc2ccccc2)NC(=O)[C@H](CC(N)=O)NC(=O)[C@H](Cc2c[nH]c3ccccc23)NC(=O)[C@H](C(C)C)NC(=O)[C@H](CO)NC(=O)CNC(=O)[C@H]([C@@H](C)CC)NC1=O		HEK293 ACE2 TMPRSS2, ancestral Wuhan		11400 nM
CC1(C)CCC(CN2CCN(c3ccc(C(=O)NS(=O)(=O)c4ccc(NCC5CCOCC5)c([N+](=O)[O-])c4)c(Oc4cnc5[nH]ccc5c4)c3)CC2)=C(c2ccc(Cl)cc2)C1	viral replication, plaque	Vero C1008	16 h	1180 ± 120 nM
O=C(Nc1ccc([N+](=O)[O-])c(Cl)c1)c1cc(Cl)ccc1O	viral replication		48 h	1740 nM
C[C@H](c1cccc2ccccc12)N(C)Cc1ccc2[nH]ncc2c1	viral replication	Caco-2-hACE2, USA-WA1/2020	24 h	≤ 10000 nM
CC[C@@H](C)[C@H](NC(=O)c1ccccc1[Se][Se]c1ccccc1C(=O)N[C@H](C(=O)OC)[C@H](C)CC)C(=O)OC	viral replication, RT-qPCR	Vero	48 h	11000 nM
Cc1ccc(CNC(=O)c2cc(F)c(Br)cc2F)cc1C(=O)N[C@H](C)c1cccc2ccccc12	viral replication	Vero C1008, WK-521 ancestral Wuhan		24300 ± 5100 nM
CC(C)C[C@H](NC(=O)OCc1ccccc1)C(=O)N[C@@H](CC1CCNC1=O)C(O)S(=O)(=O)O (stereo partly drawn)	viral replication	Vero E6	96 h	10000 ± 4200 nM
CN(C)CCCNC(=O)C[C@H](Cc1ccc(F)cc1)NC(=O)[C@@H](Cc1ccc(Cl)cc1Cl)NC(=O)[C@H](N)Cc1ccccc1C#N	viral replication	USA-WA1/2020	24 h	4200 nM
Clc1ccc(CN2CCCC3=CC4CC(CN5CCCCC45)C32)c(Cl)c1 (stereo not drawn)	pseudovirus entry		pseudovirus	22000 nM
Cc1ccc(CNC(=O)c2ccc(Br)cc2Cl)cc1C(=O)N[C@H](C)c1cccc2ccccc12	viral replication	Vero C1008, WK-521 ancestral Wuhan		> 100000 nM
O=C(CN1CCCC2=CC3CC(CN4CCCCC34)C21)Nc1ccc(Br)cc1 (stereo not drawn)	pseudovirus entry		pseudovirus	62800 nM
O=C(c1cncc(Br)c1)N1CCN(C(c2ccccc2)c2ccccc2)CC1	viral replication	USA-WA1/2020		810 ± 180 nM

SMILES	test	system	setting	EC50
CC(C)(C)[C@H](NC(=O)C(F)(F)F)C(=O)N1C[C@H]2[C@@H]([C@H]1C(=O)N[C@H](C#N)C[C@@H]1CCNC1=O)C2(C)C	dsRNA staining	Caco-2, Omicron BA.5		400 nM
Cc1ccc(CNC(=O)c2ccc(Br)c(F)c2)cc1C(=O)N[C@H](C)c1cccc2ccccc12	viral replication	Vero C1008, WK-521 ancestral Wuhan		53100 ± 4200 nM
COc1c(CNC(=O)c2cc(C3CC3)nn2C)cccc1OC(F)(F)F	viral replication	Vero C1008, WA1/2020		100 nM
CCCCNC(=O)C[C@H](Cc1ccc(F)cc1)NC(=O)[C@@H](Cc1ccc(Cl)cc1Cl)NC(=O)[C@H](N)Cc1ccccc1C#N	viral replication	USA-WA1/2020	24 h	800 nM
COc1cc(O)ccc1CN(C)[C@H](C)c1cccc2ccccc12	viral replication	Caco-2-hACE2, USA-WA1/2020	24 h	> 60000 nM
COc1ccc(-c2cnc3[nH]cc(C#Cc4cccnc4)c3c2)cc1OC	viral replication	Vero E6, USA-WA1/2020		300 nM
Cc1ccc(NCCN(C)CCNc2ccnc3cc(Cl)ccc23)c2c(=O)c3ccccc3sc12	cytopathic effect	Vero E6	72 h	3280 ± 570 nM
C[C@@H]1O[C@@H](n2c3ccccc3c3c4c(c5c6ccccc6[nH]c5c32)CNC4=O)C[C@@H](N)[C@H]1O	viral replication, refers to: nucleocapsid protein	Calu-3, Omicron BA.2		44 nM
O=S(=O)(c1ccc(Cl)cc1)N1CCCC2=CC3CC(CN4CCCCC34)C21 (stereo not drawn)	pseudovirus entry		pseudovirus	> 267000 nM
N#Cc1ccccc1C[C@@H](N)C(=O)N[C@H](Cc1ccc(Cl)cc1Cl)C(=O)N[C@H](CC(=O)O)Cc1ccc(F)cc1	viral replication	USA-WA1/2020	24 h	> 10000 nM
CCn1ccc(-c2cc(-c3cnn(CCOC)c3)cc([C@@H](C)NC(=O)c3cc(OCCN(C)C)ccc3C)c2)n1	viral replication	Caco-2, icSARS-CoV-2-nLuc reporter		960 nM
CC(=O)OC1(C)CC(C=C(C)CCC=C(C)C)OC2(C=C(CO)C3CC(=O)C(C)=CC3O2)C1 (stereo not drawn)	viral replication, refers to: nucleocapsid protein	Calu-3, Omicron BA.1		700 nM
CN(C)CCCCNC(=O)C[C@H](Cc1ccc(F)cc1)NC(=O)[C@@H](Cc1ccc(Cl)cc1Cl)NC(=O)CCc1ccccc1C#N	viral replication	USA-WA1/2020	24 h	2300 nM
C[C@](C(=O)NC1CCOCC1)(c1cncnc1)N(C(=O)[C@H](F)Cl)c1ccc(OC(F)(F)Cl)cc1	viral replication	Vero		71 nM
Cc1cc(C)cc(NC(=O)N2CCCC3=CC4CC(CN5CCCCC45)C32)c1 (stereo not drawn)	pseudovirus entry		pseudovirus	151000 nM
Cc1ccc(CNC(=O)c2ccc(I)cc2)cc1C(=O)N[C@H](C)c1cccc2ccccc12	viral replication	Vero C1008, WK-521 ancestral Wuhan		32000 ± 3100 nM
O=C(NC1CCN(c2ncnc3[nH]cnc23)CC1)c1cccc(NS(=O)(=O)c2ccc(C(F)(F)F)cc2)c1	viral replication	A549-ACE2, Wuhan-Hu-1	24 h	310 nM
O=C1C(O)=C(Nc2ccc(F)cc2)C(=O)c2ccccc21	viral replication	Calu-3	48 h	1200 ± 200 nM
O=C(CN1CCCC2=CC3CC(CN4CCCCC34)C21)Nc1cc(Cl)cc(OC(F)(F)F)c1 (stereo not drawn)	pseudovirus entry		pseudovirus	14700 nM
O=c1cc(-c2ccc(O)cc2)oc2c([C@@H]3OC[C@H](O)[C@H](O)[C@H]3O)c(O)c([C@@H]3O[C@H](CO)[C@@H](O)[C@H](O)[C@H]3O)c(O)c12	viral replication, qRT-PCR	Vero E6 cells, WIV04	24 h	11800 ± 3230 nM
Cc1ccc(CNC(=O)c2ccc(F)c(F)c2)cc1C(=O)N[C@H](C)c1cccc2ccccc12	viral replication	Vero C1008, WK-521 ancestral Wuhan		3700 ± 600 nM
CCn1ccc(-c2cc(-c3cnn(C)c3)cc([C@@H](C)NC(=O)c3cc(OCCN(C)C)ccc3C)c2)n1	viral replication, plaque	recombinant Y268H		4800 nM
CC(C)C[C@H](NC(=O)c1cc2c(OC(F)(F)F)cccc2[nH]1)C(=O)N[C@@H](C[C@@H]1CCNC1=O)C(=O)c1nc2ccccc2s1	viral replication, RT-qPCR	VeroE6, WK-521		2900 ± 150 nM
CN(C)c1ccc(N(Cc2cc(Cl)cs2)C(=O)Cc2cncc3cccc(O)c23)cc1	dsRNA staining	Caco-2, Omicron XBB.1.5		95 nM
Cc1ccc(N2CC(N3CCC(C)(O)CC3)C2)cc1C(=O)NC1(c2ccc3c4c(cccc24)CC3)CC1	viral replication	Vero C1008, XBB.1		169 nM

A few entries again:
SMILES	test	system	setting	EC50
O=S(=O)(c1ccc(Cl)cc1)N1CCCC2=CC3CC(CN4CCCCC34)C21 (stereo not drawn)	pseudovirus entry		pseudovirus	> 267000 nM
CC(=O)OC1(C)CC(C=C(C)CCC=C(C)C)OC2(C=C(CO)C3CC(=O)C(C)=CC3O2)C1 (stereo not drawn)	viral replication, refers to: nucleocapsid protein	Calu-3, Omicron BA.1		700 nM
O=C1C(O)=C(Nc2ccc(F)cc2)C(=O)c2ccccc21	viral replication	Calu-3	48 h	1200 ± 200 nM
CCCCNC(=O)C[C@H](Cc1ccc(F)cc1)NC(=O)[C@@H](Cc1ccc(Cl)cc1Cl)NC(=O)[C@H](N)Cc1ccccc1C#N	viral replication	USA-WA1/2020	24 h	800 nM
